Assay results of several laboratories.
A part holds a random share of what one study measured. Substitutions count along the parent as printed.

Study 1
Molecule: PhoQ, residues 284 288 289 292 302 303 NLMGRA
Technique: Sort-seq
Refers to: YFP reporter
Sample: E. coli
Setting: PhoQ-PhoP variant library
Added: 10 µM Mg2+
Baseline: high Mg2+ state
Reading: higher = stronger signaling
Measurement: fold induction
PhoP, residues 12 14 15 18 19 TQCLL (Escherichia coli, UniProt P23836): 11.6
PhoP, residues 12 14 15 18 19 ICWRQ (Escherichia coli, UniProt P23836): 11.8
PhoP, residues 12 14 15 18 19 VHTVL (Escherichia coli, UniProt P23836): 12

Study 2
Target: CREBRF, bZIP domain (human)
Technique: DHFR protein complementation
Sample: yeast
Setting: single substitutions, most at no-binding floor
Baseline: wild-type JUN-FOS pair
Reading: higher = stronger binding
Measurement: binding fitness
Parent: JUN, bZIP domain (human); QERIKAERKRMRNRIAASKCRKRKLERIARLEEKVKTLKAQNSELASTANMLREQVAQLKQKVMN; partner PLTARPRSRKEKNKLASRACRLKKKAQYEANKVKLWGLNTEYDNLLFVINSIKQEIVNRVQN
I28G: -1.52 natural log
E54R: -1.57 natural log
E44M: -1.48 natural log
L45V: -1.54 natural log
E33F: -1.23 natural log
A46R: -1.41 natural log
K34W: -1.49 natural log
T48V: -1.45 natural log
A57S: -1.56 natural log
A40L: -1.47 natural log
L38C: -1.41 natural log
A40D: -1.45 natural log
L38T: -1.52 natural log

Study 3
Target: CCNA1, cyclin fold, Cln2 fusion (human)
Technique: yeast growth competition, sequencing
Sample: yeast
Setting: weak parent motif
Baseline: not given
Reading: higher = stronger binding
Measurement: normalised enrichment score
Parent: ANKRD17 docking peptide (human); PSVRRQLFVTVVK
V9A: 0.264
S2A: 0.474
Q6A: 0.0447
R5K: 0.066
T10A: 0.798
R4A: 0.325
L7A: 0.555

Study 4
Target: ABI1, truncated, D143A, DHFR fusion (Arabidopsis thaliana)
Technique: DHFR PCA, deep sequencing
Sample: yeast
Setting: methotrexate growth selection, single substitutions
Added: (+)-ABA 2500 µM
Baseline: wild-type fitted maximum
Reading: higher = stronger binding
Measurement: relative binding score
Parent: PYL1, truncated, DHFR fusion (Arabidopsis thaliana); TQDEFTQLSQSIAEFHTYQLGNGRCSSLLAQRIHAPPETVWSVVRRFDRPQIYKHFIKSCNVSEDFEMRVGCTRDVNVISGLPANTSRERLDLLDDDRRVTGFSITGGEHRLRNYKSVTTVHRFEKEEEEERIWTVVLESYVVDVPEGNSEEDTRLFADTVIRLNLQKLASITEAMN; partner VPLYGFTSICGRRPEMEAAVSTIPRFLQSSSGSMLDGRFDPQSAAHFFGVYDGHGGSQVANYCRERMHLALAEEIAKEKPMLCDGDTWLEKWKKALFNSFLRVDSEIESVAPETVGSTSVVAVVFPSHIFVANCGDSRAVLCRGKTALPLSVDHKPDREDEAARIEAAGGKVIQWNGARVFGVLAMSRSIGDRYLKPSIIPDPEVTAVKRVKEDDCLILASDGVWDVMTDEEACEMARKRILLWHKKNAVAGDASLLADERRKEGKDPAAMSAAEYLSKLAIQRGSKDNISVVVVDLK
V121G: 1%
V40A: 79.4%
P146T: 79.4%
W134S: 108%
G81K: 88.9%
I162F: -11.7%
S59T: 98%
F47S: -0.254%
S59H: 92.5%
I33R: -2.23%
V142C: 98.6%
C25P: 68.2%
R123T: 104%
L156P: 15.8%
D159P: -3.48%
R90T: 98.4%

Some of these lines once more (study 4):
W134S: 108%
I33R: -2.23%
P146T: 79.4%
V142C: 98.6%
